{"data": "Assay results pooled from the literature", "note": "A part holds a random share of what one study measured."}
{"data": "Sample 1", "target": "Histone acetyltransferase KAT6A, both winged helices, GST fusion (KAT6A, Homo sapiens, UniProt Q92794, residues 1-181)", "technique": "protein binding microarray", "form": "double-stranded DNA, one strand shown", "matrix": "in vitro", "concentration": "not given", "setting": "8-mer, flanks averaged, mean of 2 arrays, mostly near background", "reference": "not given", "reading": "higher = stronger binding", "Target sequence (chain)": "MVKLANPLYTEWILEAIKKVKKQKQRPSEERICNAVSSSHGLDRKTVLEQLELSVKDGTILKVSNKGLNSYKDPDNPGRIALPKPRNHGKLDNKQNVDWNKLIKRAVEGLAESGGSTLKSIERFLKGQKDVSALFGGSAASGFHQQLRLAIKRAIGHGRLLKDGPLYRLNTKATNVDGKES"}
{"Strand": "ACCCAAGG", "E-score": 0.0381}
{"Strand": "GCGCCATA", "E-score": 0.21}
{"Strand": "CAATGGTG", "E-score": -0.156}
{"Strand": "AGCGTTGG", "E-score": -0.0575}
{"Strand": "CTTTCGCC", "E-score": 0.0929}
{"Strand": "ACATGGCT", "E-score": -0.166}
{"Strand": "AGCTATAA", "E-score": -0.208}
{"Strand": "CGCCCAGA", "E-score": -0.0101}
{"Strand": "CCTATTGC", "E-score": -0.167}
{"Strand": "ACGGAGAT", "E-score": 0.0859}
{"Strand": "GCTCTGTA", "E-score": -0.115}
{"Strand": "TGGGTGAA", "E-score": 0.0398}
{"Strand": "ACAATTCG", "E-score": 0.0209}
{"Strand": "AGTCTGTC", "E-score": -0.0971}
{"Strand": "ATACATCC", "E-score": 0.0953}
{"Strand": "CGAGGATA", "E-score": -0.255}
{"Strand": "AGACTCTG", "E-score": -0.286}
{"Strand": "CCAAGCTC", "E-score": -0.155}
{"Strand": "CTGAGGAA", "E-score": -0.0231}
{"Strand": "CCGTTACA", "E-score": 0.177}
{"Strand": "CTACGCCC", "E-score": 0.108}
{"data": "Sample 2", "target": "Sal-like protein 4, full length isoform A (SALL4, Homo sapiens, UniProt Q9UJQ4, residues 1-1053)", "technique": "universal PBM", "form": "double-stranded DNA, one strand shown", "matrix": "in vitro", "concentration": "600 nM", "setting": "8-mer, flanks averaged, mean of replicates", "reading": "higher = stronger binding", "chain of UniProt Q9UJQ4 (whole entry, looked up)": "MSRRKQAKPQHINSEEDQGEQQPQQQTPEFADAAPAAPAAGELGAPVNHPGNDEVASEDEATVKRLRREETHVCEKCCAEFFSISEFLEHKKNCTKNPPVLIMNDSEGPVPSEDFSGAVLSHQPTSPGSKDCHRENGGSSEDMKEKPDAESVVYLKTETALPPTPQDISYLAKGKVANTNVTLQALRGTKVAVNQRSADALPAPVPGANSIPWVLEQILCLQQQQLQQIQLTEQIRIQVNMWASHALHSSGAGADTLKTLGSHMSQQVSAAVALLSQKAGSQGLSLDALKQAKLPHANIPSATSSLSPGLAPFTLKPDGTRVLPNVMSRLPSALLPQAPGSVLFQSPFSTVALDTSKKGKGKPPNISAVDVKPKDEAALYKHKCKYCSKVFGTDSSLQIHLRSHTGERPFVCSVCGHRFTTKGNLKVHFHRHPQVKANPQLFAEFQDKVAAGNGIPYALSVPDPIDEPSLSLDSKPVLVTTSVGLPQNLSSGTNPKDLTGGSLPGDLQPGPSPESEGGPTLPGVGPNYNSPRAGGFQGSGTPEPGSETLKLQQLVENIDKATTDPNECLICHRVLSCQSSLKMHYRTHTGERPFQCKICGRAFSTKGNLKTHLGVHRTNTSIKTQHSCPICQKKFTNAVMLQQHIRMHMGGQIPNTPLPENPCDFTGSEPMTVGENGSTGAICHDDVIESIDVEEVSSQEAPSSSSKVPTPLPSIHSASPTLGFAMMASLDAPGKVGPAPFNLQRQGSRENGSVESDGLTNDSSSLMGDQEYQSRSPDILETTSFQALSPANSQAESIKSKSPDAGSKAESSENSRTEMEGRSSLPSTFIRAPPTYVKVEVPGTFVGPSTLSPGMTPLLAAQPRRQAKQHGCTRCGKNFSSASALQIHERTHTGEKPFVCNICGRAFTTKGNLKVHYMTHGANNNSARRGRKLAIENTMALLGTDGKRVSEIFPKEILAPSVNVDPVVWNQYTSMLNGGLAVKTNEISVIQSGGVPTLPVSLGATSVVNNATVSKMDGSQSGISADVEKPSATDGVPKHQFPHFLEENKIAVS"}
{"Strand": "CGGTGTAC", "E-score": -0.147}
{"Strand": "CCTAGTGA", "E-score": -0.258}
{"Strand": "CAAGTTGA", "E-score": 0.00237}
{"Strand": "CAAGATCG", "E-score": 0.0223}
{"Strand": "CATAAGAA", "E-score": 0.311}
{"Strand": "TTACCGAA", "E-score": 0.136}
{"Strand": "CTGATATA", "E-score": 0.309}
{"Strand": "GCAGAACA", "E-score": -0.0347}
{"Strand": "ACTGGCCG", "E-score": -0.355}
{"Strand": "ACGCCGGG", "E-score": -0.317}
{"Strand": "ACCTCCCG", "E-score": -0.26}
{"Strand": "ACCGTACT", "E-score": 0.0585}
{"Strand": "AAGGGACC", "E-score": -0.196}
{"Strand": "CACCCGCA", "E-score": -0.205}
{"Strand": "ATGTTAAG", "E-score": 0.18}
{"Strand": "AATGTAGC", "E-score": "5e-05"}
{"Strand": "AGTGTCGG", "E-score": -0.213}
{"Strand": "CCGCGTCA", "E-score": -0.274}
{"Strand": "ACCGACAG", "E-score": -0.26}
{"Strand": "CCCATCTC", "E-score": -0.245}
{"Strand": "ATTTGCCC", "E-score": 0.0155}
{"Strand": "AACTGGGA", "E-score": -0.143}
{"Strand": "GCGAGCGC", "E-score": -0.293}
{"Strand": "ACCCCAAC", "E-score": -0.0921}
{"Strand": "ACCTTGAC", "E-score": -0.135}
{"data": "Sample 3", "target": "RING finger protein unkempt homolog, zinc fingers 1-6, GST-SBP tag (UNK, Homo sapiens, UniProt Q9C0B0, residues 30-357)", "technique": "RNA Bind-n-Seq", "form": "RNA", "matrix": "in vitro", "concentration": "not given", "setting": "RNA with constant flanks, human and mouse sites, ends assumed", "reference": "input RNA pool", "reading": "higher = stronger binding", "chain of UniProt Q9C0B0 (30-357, looked up)": "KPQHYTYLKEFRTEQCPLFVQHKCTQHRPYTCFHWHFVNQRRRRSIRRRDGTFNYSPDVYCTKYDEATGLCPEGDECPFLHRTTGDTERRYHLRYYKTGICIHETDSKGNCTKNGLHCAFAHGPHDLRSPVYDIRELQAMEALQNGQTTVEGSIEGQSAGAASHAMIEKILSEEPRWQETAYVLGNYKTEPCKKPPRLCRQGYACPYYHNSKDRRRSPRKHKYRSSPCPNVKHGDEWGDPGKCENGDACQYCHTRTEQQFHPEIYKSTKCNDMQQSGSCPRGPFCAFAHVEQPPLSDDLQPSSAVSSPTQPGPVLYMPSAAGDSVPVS"}
{"Strand": "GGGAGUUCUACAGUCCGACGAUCAAAGUCCACAGUGCAGUGCCUGUCCAGUGUUCAGUGGAGUUUCUGGCACUGGUACAUCUCAAUAGGAUUUCUUUUUAAGAGUACUGUACUGUCUCUUGAAGCCAGUCAGGGACUUUUUAACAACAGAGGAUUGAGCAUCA", "bound/input enrichment [ratio]": 0.255}
{"Strand": "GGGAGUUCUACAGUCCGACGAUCCAGAGAAGAAGGGAAAGGCCAAAGACACCACCUAGUAAUCUCUCUCCCAUUGAAGAUGCAUCUCCGACAGAAGAGUUACGUCAGGCUGCAGAAAUGGAGGAGCUCCAUAGAUCUUCUUGUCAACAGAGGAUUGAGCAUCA", "bound/input enrichment [ratio]": 0.301}
{"Strand": "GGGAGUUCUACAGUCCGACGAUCAACUGGAAACCUUUUGUGUAUGGCGGCCUUGCCUCUAUUGUUGCCGAGUUCGGCACUUUCCCUGUGGAUCUUACUAAAACACGGCUGCAAGUCCAAGGCCAGAGUAUCGAUGUUCGUUUCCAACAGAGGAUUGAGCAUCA", "bound/input enrichment [ratio]": 0.107}
{"Strand": "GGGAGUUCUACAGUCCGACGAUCUCUUCUGAAAAGGAGGCAGCUCCAGACGCUGGUGCUGAGCCCAUCACUGCAGACAGUGACCCCGCUUAUAGUUCGAAGGUACUGCUGCUCUCUUCCCCGGGGUUGGAGGAAUUGUAUCGUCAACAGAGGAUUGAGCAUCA", "bound/input enrichment [ratio]": 0.182}
{"Strand": "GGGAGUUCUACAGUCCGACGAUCAGGUCUUGCCACUAGGAAUUUUUAAAAAGCAUACUUCUGUUACAUAUAACAACAUUUCAGGAAAUUCAGCCAGCUUGUUUUCUUUCUCUCCUGUGUUAAUAUUUAGUGUUUCUCAUGAGGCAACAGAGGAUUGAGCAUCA", "bound/input enrichment [ratio]": 13.6}
{"Strand": "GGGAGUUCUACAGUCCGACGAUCAAACCAACUAAAAACAUGAUUAACAUCAACAGCCGCCUGCAGGAAGUCUUUGGCUGUGCCAUUAGGGCUGCAUAUCCAGACUUGGAGAACCCUCCCCUGAUCGUGACACCAAGUCAGCAGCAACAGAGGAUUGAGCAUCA", "bound/input enrichment [ratio]": 2.15}
{"Strand": "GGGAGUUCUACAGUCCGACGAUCGAAGGGCUAUCUUUCUAUUCACAUCAAACCUUUUGUUGCGUGUUUCUGUUUUUUAAUACUUUAGGGUUCUGAUUUGUGGGAACAGACCUUGUAAAUAACCACUGUUCACAUGUGUGGCAGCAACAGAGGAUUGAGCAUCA", "bound/input enrichment [ratio]": 0.479}
{"Strand": "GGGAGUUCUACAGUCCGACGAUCAGCGCCUCAGAUGAUCAGACCAUUCGGGUGUGGAACUGGCAGUCUAGAACCUGUGUCUGUGUGUUAACGGGGCACAACCAUUAUGUAAUGUGUGCUCAGUUCCACCCCUCUGAAGACCUGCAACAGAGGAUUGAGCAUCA", "bound/input enrichment [ratio]": 2.46}
{"data": "Sample 4", "target": "RNA binding protein fox-1 homolog 2, RRM domain, GST-SBP tag (RBFOX2, Homo sapiens, UniProt O43251-10, residues 100-194)", "technique": "RNA Bind-n-Seq", "form": "RNA", "matrix": "in vitro", "concentration": "365 nM", "setting": "natural RNA segment, single round, ends assumed", "reference": "no-protein control", "reading": "higher = stronger binding", "Residues (chain)": "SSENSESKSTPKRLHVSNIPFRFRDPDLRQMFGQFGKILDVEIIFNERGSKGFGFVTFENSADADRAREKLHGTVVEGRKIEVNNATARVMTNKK"}
{"Strand": "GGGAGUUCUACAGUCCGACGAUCUCGUAAACCCUGGCACUCCCUCCUUUAAUGGGGGCUCCCAUAAGACCCAUCUUUCCCUGCAGCUCACACCUACGCCCCAAAAGCAGUUCCCAAAGCAGUCAUGGUGCACAUGGAAUUCUCGGGUGCCAA", "RBNS enrichment (R)": 0.427}
{"Strand": "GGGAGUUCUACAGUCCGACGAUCCGAAGAGGAAAGCCACGUAGAGUGGUUGGCAUGGGGUGCCAGCAUCGUGCAAGCUCUGUCAUAAUCUGCAUCUUCCCAGCAGCCUGGUACCCCAGGUUCCUGUAACUCCCUGGAAUUCUCGGGUGCCAA", "RBNS enrichment (R)": 0.582}
{"Strand": "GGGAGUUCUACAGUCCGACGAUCUCACACCAAUCUGCAGAAACCUCUUCCCUGGGGUGGAAGCCAGAGAGCUUAGAGGAAAAAGGUCAGCUCUCUUCCUGUUAUACAUGGUUAUACAUGGUUGGGGUUUAAAAUGGAAUUCUCGGGUGCCAA", "RBNS enrichment (R)": 0.317}
{"Strand": "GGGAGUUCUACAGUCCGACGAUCUUAGAUACAGAAUGAGUUAGAUAAACUUGGCUUGUCUAGAGACCCAUGUCAUCUUAACCUAAAGGGAAAUCUUAUUGCGUUAUCAUAAAAUUGAUGAUAUCUUAGGGUCAUGGAAUUCUCGGGUGCCAA", "RBNS enrichment (R)": 0.536}
{"Strand": "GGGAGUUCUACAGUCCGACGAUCCUCAGGUUCAGUGGGACUGCCACUGUUAAGGAAGCCACGUUGCUGAUGGGAGGUCUCACCGGCCACAGUGAGGGUUGUUUCCUGACAAGACUUUUGUGUUAAGGAUGUGUUGGAAUUCUCGGGUGCCAA", "RBNS enrichment (R)": 0.471}
{"Strand": "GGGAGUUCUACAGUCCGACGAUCACAACAGGUGCUGGAGAGGAUGUGGAGAAAUAGGAACACUUUUACACUGUUGGUGGGACUGUAAACUAGUUCAACCAUUGUGGAAGUAAUCUUUUAAUGAUAUUUUCUUAUGGAAUUCUCGGGUGCCAA", "RBNS enrichment (R)": 0.274}
{"Strand": "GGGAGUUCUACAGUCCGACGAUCAGUGGCACGGAUGAAGGGAUGCGAUGCAGUGUCUGGCACACUGAGAUGUUCCGCAAAGGAUGCUGAUCUACCAGGUUUAGCUCAACCUGGAAUAGCUGACUACCCAGGGAUGGAAUUCUCGGGUGCCAA", "RBNS enrichment (R)": 0.792}
{"Strand": "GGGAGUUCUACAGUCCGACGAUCCCUCUCCAUCUGCUGUGUUUGGACGCGUUCCUGCCCAGCCCCUUGCUGUCAUCCCCUCCCCCAACCUUGGCCACUUGAGUUUGUCCUCCAAGGGUAGGUGUCUCAUUUGUUGGAAUUCUCGGGUGCCAA", "RBNS enrichment (R)": 0.697}
{"note": "Repeated from above (sample 2):"}
{"Strand": "CCTAGTGA", "E-score": -0.258}
{"Strand": "CTGATATA", "E-score": 0.309}
{"Strand": "GCAGAACA", "E-score": -0.0347}
{"Strand": "CCCATCTC", "E-score": -0.245}
{"Strand": "AATGTAGC", "E-score": "5e-05"}
{"Strand": "ACCTCCCG", "E-score": -0.26}
{"Strand": "CGGTGTAC", "E-score": -0.147}
{"Strand": "AACTGGGA", "E-score": -0.143}
